{"data": "Published values from different studies", "TMPRSS2": "Transmembrane protease serine 2 (TMPRSS2, Homo sapiens, UniProt O15393)", "Htr2c": "5-hydroxytryptamine receptor 2C (Htr2c, Mus musculus, UniProt P34968)", "PFF0160c E182D": "Dihydroorotate dehydrogenase (quinone), mitochondrial (PFF0160c, Plasmodium falciparum, UniProt Q08210, E182D)", "tmk": "Thymidylate kinase (tmk, Mycobacterium tuberculosis, UniProt P9WKE1)", "note": "Each line is one published result; not all experiments were run side by side.", "UniProt O15393, sequence (whole entry, looked up)": "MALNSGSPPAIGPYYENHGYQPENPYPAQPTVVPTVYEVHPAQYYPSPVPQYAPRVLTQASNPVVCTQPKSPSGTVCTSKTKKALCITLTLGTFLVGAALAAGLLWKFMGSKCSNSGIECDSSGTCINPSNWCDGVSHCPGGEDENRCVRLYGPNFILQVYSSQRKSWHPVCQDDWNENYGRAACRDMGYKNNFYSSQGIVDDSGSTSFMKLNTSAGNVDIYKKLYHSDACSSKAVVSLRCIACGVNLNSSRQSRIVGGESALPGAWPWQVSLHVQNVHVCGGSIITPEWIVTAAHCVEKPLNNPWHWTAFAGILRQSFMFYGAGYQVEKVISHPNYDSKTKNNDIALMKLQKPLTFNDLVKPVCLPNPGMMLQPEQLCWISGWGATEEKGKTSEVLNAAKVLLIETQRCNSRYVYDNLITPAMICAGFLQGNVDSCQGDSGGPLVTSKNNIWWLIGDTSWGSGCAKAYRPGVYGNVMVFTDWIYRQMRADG", "UniProt P34968, sequence (whole entry, looked up)": "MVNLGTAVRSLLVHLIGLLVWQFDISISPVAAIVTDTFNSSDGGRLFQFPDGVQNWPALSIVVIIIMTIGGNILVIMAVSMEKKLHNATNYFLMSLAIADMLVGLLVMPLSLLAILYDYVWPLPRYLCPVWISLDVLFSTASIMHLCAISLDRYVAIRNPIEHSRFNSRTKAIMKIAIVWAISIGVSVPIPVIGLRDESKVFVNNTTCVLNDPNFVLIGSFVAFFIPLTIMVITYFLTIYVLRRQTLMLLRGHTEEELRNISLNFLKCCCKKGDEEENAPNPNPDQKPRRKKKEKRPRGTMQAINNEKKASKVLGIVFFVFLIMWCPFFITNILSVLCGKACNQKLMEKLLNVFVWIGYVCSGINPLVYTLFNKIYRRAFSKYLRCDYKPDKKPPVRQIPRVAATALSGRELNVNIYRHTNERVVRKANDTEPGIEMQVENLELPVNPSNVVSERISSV", "UniProt Q9Y6R4, sequence (whole entry, looked up)": "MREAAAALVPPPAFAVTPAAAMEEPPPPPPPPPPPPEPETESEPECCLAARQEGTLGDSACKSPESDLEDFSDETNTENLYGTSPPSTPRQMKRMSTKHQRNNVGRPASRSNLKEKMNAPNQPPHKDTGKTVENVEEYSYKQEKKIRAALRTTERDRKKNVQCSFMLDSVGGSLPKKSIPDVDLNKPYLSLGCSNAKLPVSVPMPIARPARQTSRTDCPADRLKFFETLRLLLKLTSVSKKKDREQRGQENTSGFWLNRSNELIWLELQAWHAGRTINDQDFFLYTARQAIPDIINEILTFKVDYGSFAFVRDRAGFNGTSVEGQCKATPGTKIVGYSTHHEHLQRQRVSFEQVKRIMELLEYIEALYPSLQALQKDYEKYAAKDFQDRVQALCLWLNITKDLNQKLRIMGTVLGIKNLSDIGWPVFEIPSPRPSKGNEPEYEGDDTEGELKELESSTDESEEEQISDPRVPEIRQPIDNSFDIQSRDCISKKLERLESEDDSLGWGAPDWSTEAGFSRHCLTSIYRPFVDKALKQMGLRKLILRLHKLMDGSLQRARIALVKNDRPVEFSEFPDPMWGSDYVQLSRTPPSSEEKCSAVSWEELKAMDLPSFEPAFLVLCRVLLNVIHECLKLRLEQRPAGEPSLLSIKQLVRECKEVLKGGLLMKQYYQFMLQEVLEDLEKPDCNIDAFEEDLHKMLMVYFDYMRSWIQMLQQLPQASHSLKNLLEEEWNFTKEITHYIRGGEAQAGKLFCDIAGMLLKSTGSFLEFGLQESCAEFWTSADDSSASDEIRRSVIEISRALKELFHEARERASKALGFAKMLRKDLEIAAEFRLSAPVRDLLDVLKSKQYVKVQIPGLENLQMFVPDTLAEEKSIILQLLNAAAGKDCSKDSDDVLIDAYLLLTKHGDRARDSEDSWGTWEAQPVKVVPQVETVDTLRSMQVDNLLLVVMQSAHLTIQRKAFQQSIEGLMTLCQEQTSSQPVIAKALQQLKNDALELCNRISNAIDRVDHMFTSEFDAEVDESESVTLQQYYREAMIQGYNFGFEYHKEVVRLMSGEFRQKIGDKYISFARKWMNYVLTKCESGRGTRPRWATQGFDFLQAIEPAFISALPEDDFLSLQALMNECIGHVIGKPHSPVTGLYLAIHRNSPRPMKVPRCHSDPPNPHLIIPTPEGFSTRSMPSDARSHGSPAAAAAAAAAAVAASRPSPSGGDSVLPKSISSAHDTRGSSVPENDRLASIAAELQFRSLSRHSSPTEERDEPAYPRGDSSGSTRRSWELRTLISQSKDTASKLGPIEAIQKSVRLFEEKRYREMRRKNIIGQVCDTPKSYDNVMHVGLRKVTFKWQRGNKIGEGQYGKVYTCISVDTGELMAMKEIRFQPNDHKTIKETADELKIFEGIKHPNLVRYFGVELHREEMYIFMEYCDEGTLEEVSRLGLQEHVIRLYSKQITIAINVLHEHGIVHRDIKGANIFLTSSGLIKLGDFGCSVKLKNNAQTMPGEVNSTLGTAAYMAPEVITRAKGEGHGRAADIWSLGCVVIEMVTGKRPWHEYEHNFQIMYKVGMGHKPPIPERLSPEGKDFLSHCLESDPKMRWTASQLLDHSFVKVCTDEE", "UniProt Q9NY57, sequence (whole entry, looked up)": "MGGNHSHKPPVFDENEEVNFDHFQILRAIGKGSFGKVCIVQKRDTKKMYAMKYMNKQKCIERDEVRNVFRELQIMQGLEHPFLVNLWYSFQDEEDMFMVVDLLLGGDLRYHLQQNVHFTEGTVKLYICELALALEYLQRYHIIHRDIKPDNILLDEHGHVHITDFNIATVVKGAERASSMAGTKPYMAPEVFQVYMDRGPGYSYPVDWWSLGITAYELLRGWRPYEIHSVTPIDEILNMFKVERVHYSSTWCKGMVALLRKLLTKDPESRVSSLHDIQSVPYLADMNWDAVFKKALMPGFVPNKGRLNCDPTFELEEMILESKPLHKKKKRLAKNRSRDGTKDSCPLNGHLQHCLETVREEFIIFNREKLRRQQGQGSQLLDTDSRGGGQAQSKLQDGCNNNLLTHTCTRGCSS", "UniProt P28335, sequence (whole entry, looked up)": "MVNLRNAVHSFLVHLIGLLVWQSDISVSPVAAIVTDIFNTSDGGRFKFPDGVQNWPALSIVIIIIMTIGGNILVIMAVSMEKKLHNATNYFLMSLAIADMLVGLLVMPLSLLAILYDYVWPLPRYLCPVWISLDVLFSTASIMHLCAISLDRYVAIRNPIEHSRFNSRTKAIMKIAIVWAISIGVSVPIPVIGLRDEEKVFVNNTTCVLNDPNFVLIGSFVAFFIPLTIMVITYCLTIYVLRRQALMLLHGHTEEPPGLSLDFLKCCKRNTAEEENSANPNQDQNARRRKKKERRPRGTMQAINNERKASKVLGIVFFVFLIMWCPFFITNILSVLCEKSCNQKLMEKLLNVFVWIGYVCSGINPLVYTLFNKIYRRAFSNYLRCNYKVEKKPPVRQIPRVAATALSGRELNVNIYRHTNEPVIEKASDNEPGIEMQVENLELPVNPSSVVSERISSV", "UniProt Q13177, sequence (whole entry, looked up)": "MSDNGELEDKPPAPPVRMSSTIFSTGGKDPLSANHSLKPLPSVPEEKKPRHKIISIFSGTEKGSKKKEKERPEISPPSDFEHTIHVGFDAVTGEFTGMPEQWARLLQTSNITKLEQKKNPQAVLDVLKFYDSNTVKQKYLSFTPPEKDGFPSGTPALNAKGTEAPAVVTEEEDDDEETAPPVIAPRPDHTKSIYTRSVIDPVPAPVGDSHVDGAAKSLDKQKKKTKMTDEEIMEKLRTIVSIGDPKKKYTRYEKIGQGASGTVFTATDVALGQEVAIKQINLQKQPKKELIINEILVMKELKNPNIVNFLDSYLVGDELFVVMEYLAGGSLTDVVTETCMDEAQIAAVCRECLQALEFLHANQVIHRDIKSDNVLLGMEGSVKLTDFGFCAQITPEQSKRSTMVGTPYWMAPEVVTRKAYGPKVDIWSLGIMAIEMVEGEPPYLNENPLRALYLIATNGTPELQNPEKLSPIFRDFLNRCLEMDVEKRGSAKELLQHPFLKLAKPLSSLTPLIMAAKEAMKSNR"}
{"Structure (SMILES)": "CC(=O)Nc1ccc(C(=O)N[C@H]2CC[C@@]3(O)[C@H]4Cc5ccc(O)c6c5[C@@]3(CCN4CC3CC3)[C@H]2O6)s1.Cl", "tested on": "HEK293", "test": "GTPγS binding, agonist, radiometric", "measurement": "Emax", "value": "21.2%"}
{"Structure (SMILES)": "N=C(N)NCCC[C@H](NC(=O)[C@H](Cc1ccccc1)NC(=O)[C@H](CCC(N)=O)NC(=O)CCc1ccccc1)C(=O)c1nc2ccccc2s1", "tested on": "TMPRSS2", "test": "enzyme activity, inhibitor", "conditions": "1 nM", "measurement": "activity vs control", "value": "87%"}
{"Structure (SMILES)": "COc1cc(CCNC(C)c2ccccc2O)c(OC)cc1C#N (stereo not shown)", "tested on": "Htr2c", "test": "G protein activation, agonist, BRET", "measurement": "Emax", "value": "98%"}
{"Structure (SMILES)": "Cl.O=C(N[C@H]1CC[C@@]2(O)[C@H]3Cc4ccc(O)c5c4[C@@]2(CCN3CC2CC2)[C@H]1O5)c1ccc(Cl)s1", "tested on": "HEK293", "test": "GTPγS binding, agonist, radiometric", "measurement": "Emax", "value": "26.7%"}
{"Structure (SMILES)": "Nc1ncc(-c2nc(N3CCOCC3)nc(N3CCOCC3)n2)c(C(F)F)n1", "tested on": "Tyrosine-protein kinase ABL1, phosphorylated (ABL1, Homo sapiens, UniProt P00519, Q252H)", "test": "binding, competition with immobilised ligand", "conditions": "10 µM", "measurement": "remaining binding", "value": "47%"}
{"Structure (SMILES)": "Cc1cc(=O)oc2c1ccc1oc(C(O)c3ccc(Cl)cc3)c(C)c12 (stereo not shown)", "tested on": "PFF0160c E182D", "test": "enzyme activity, inhibitor, absorbance", "measurement": "IC50", "value": "855 nM"}
{"Structure (SMILES)": "CCOC(=O)C1=C(C)NC(=O)NC1c1ccc([N+](=O)[O-])o1 (stereo not shown)", "tested on": "tmk", "test": "enzyme activity, inhibitor, absorbance", "conditions": "0.01 µg/mL", "measurement": "inhibition", "value": "34.8%"}
{"Structure (SMILES)": "C[C@H](NC(=O)[C@H](CC(N)=O)NC(=O)[C@@H](N)CCCCN)C(=O)N[C@@H](CCCNC(=N)N)C(=O)c1nc2ccccc2s1", "tested on": "TMPRSS2", "test": "enzyme activity, inhibitor", "conditions": "1 nM", "measurement": "activity vs control", "value": "97%"}
{"Structure (SMILES)": "CCC(NCCc1cc(OC)c(C#N)cc1OC)c1ccccc1O (stereo not shown)", "tested on": "HTR2C (Homo sapiens, UniProt P28335)", "test": "calcium signal, agonist", "measurement": "Emax", "value": "42%"}
{"Structure (SMILES)": "[2H]c1c([2H])c([C@]2([2H])CCCN2C(=O)C(C)(C)Oc2ccc3cn[nH]c3c2)c([2H])c([2H])c1C([2H])([2H])[2H]", "tested on": "PAK2 (Homo sapiens, UniProt Q13177)", "test": "binding, competition with immobilised ligand", "conditions": "1 µM", "measurement": "remaining binding", "value": "89%"}
{"Structure (SMILES)": "CC1=C(C(N)=O)C(c2ccc([N+](=O)[O-])o2)NC(=S)N1 (stereo not shown)", "tested on": "tmk", "test": "enzyme activity, inhibitor, absorbance", "conditions": "0.01 µg/mL", "measurement": "inhibition", "value": "37.3%"}
{"Structure (SMILES)": "CCSc1nnc(C2CCCN(CC(=O)Nc3cc(C(F)(F)F)ccc3Cl)C2)n1CC (stereo not shown)", "tested on": "PFF0160c E182D", "test": "enzyme activity, inhibitor, absorbance", "measurement": "IC50", "value": "1090 nM"}
{"Structure (SMILES)": "C[C@H](NC(=O)[C@H](CCC(N)=O)NC(=O)[C@@H](N)CCCNC(=N)N)C(=O)N(CCCNC(=N)N)CC(=O)c1nc2ccccc2s1", "tested on": "TMPRSS2", "test": "enzyme activity, inhibitor", "conditions": "1 nM", "measurement": "activity vs control", "value": "85%"}
{"Structure (SMILES)": "Cl.O=C(N[C@H]1CC[C@@]2(O)[C@H]3Cc4ccc(O)c5c4[C@@]2(CCN3CC2CC2)[C@H]1O5)c1ccc(Br)s1", "tested on": "HEK293", "test": "GTPγS binding, agonist, radiometric", "measurement": "Emax", "value": "25.7%"}
{"Structure (SMILES)": "Cc1nn(C)cc1-c1nc2c(N3CCN(Cc4ccc(Cl)cc4)CC3)c(Cl)cnc2[nH]1", "tested on": "STK32B (Homo sapiens, UniProt Q9NY57)", "test": "binding, competition with immobilised ligand", "conditions": "1 µM", "measurement": "remaining binding", "value": "100%"}
{"Structure (SMILES)": "N.N.[Cl][Pt][Cl]", "tested on": "KARPAS-299", "test": "cell growth or viability, ATP luminescence", "conditions": "72 h", "measurement": "IC50", "value": "1530 nM"}
{"Structure (SMILES)": "C#Cc1n[nH]c2c(-c3cn(C(C)c4ccccn4)c(=O)[nH]c3=O)cc(F)cc12 (stereo not shown)", "tested on": "PRKDC (Homo sapiens, UniProt P78527)", "test": "enzyme activity, inhibitor", "conditions": "1 µM", "measurement": "inhibition", "value": "12.8%"}
{"Structure (SMILES)": "COC(=O)c1cc(-c2cccc(NC(=S)Nc3cccc(Cl)c3)c2)on1", "tested on": "Mycolicibacterium fortuitum", "test": "microbial growth, broth dilution", "system": "ATCC6841", "conditions": "48 h", "measurement": "MIC", "value": "> 64 µg/mL"}
{"Structure (SMILES)": "COc1cc(CCN)c(OC)cc1Br", "tested on": "Htr2c", "test": "G protein activation, agonist, BRET", "measurement": "Emax", "value": "94%"}
{"Structure (SMILES)": "COc1ncccc1-c1cnn2ccc(N3CCN(C(=O)OC(C)C)CC3)nc12", "tested on": "MAP3K4 (Homo sapiens, UniProt Q9Y6R4)", "test": "binding, competition with immobilised ligand", "conditions": "1 µM", "measurement": "remaining binding", "value": "73%"}
{"Structure (SMILES)": "COC(=O)c1cc(-c2cccc(NC(=O)Nc3ccc(F)cc3)c2)on1", "tested on": "Pseudomonas aeruginosa", "test": "microbial growth, broth dilution", "system": "ATCC27853", "measurement": "MIC", "value": "> 64 µg/mL"}
{"Structure (SMILES)": "COc1cc(CCNC(C)c2ccccc2O)c(OC)cc1Br (stereo not shown)", "tested on": "Htr2c", "test": "G protein activation, agonist, BRET", "measurement": "Emax", "value": "102%"}
{"note": "Excerpt of the above:"}
{"Structure (SMILES)": "CC1=C(C(N)=O)C(c2ccc([N+](=O)[O-])o2)NC(=S)N1 (stereo not shown)", "tested on": "tmk", "test": "enzyme activity, inhibitor, absorbance", "conditions": "0.01 µg/mL", "measurement": "inhibition", "value": "37.3%"}
